# Experimental data collected from several papers.
# Every numbered part comes from another study and shows a few of its results, in no order.
# Chain of UniProt O15197 (whole entry, looked up): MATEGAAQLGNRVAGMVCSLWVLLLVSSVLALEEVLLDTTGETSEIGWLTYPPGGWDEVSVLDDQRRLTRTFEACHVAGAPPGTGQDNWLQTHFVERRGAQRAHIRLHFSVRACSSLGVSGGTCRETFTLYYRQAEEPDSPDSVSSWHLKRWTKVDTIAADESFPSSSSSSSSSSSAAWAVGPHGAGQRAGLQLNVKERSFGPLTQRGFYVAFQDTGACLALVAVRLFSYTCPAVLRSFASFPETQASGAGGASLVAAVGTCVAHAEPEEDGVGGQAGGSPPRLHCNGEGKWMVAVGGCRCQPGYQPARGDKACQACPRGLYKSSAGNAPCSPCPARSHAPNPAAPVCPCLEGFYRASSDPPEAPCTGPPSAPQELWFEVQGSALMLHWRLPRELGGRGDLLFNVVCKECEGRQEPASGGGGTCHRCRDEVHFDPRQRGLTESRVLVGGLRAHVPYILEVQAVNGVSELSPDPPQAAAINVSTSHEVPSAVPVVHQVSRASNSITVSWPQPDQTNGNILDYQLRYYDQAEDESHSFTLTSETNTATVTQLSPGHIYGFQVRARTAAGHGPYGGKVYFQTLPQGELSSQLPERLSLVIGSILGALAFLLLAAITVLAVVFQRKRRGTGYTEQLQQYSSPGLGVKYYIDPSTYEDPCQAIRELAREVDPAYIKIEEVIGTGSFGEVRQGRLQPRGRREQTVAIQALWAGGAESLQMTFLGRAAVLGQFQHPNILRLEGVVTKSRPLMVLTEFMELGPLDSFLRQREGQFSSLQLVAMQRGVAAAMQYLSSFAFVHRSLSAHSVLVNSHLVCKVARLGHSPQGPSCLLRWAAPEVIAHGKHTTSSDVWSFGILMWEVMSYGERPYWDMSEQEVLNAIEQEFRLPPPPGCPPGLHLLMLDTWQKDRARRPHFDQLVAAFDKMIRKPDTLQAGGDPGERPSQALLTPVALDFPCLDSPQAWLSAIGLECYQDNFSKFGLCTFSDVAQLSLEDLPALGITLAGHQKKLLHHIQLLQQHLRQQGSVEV
# Chain of UniProt Q8TDX7 (whole entry, looked up): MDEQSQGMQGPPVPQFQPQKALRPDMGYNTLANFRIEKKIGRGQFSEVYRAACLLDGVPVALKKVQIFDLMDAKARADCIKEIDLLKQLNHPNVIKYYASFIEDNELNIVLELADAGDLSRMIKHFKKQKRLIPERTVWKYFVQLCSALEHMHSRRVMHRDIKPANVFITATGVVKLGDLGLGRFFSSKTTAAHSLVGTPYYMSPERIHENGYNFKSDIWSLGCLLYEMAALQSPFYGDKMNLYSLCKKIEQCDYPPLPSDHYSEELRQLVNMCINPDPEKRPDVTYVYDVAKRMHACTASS
# Chain of UniProt O75385 (whole entry, looked up): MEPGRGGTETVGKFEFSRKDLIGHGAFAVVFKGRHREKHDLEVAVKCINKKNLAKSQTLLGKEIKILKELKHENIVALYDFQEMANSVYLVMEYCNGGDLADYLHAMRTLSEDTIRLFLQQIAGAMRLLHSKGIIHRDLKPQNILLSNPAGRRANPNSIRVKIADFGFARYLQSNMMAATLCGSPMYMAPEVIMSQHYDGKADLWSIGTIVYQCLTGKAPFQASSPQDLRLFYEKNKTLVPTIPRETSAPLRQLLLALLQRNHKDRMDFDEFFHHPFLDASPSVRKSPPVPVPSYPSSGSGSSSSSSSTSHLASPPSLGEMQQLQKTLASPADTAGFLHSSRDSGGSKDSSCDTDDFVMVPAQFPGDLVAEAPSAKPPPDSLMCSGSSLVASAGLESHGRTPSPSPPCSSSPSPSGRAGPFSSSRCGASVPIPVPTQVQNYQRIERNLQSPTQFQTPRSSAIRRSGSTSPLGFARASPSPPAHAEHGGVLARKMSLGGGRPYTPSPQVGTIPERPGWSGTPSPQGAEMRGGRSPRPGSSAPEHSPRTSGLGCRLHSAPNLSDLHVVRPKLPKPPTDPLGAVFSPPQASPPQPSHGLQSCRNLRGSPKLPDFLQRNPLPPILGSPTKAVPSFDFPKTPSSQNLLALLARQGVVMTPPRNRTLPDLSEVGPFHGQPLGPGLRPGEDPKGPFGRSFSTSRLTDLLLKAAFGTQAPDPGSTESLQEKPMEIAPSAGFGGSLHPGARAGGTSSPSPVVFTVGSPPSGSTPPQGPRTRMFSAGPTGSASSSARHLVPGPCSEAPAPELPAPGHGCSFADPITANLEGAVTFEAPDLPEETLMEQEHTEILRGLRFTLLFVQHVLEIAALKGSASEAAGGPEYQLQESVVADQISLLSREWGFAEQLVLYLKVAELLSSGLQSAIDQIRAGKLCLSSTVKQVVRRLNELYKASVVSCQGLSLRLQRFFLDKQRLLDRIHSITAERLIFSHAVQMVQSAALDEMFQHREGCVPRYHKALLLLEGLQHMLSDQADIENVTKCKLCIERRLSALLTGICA
# Chain of UniProt P04049 (whole entry, looked up): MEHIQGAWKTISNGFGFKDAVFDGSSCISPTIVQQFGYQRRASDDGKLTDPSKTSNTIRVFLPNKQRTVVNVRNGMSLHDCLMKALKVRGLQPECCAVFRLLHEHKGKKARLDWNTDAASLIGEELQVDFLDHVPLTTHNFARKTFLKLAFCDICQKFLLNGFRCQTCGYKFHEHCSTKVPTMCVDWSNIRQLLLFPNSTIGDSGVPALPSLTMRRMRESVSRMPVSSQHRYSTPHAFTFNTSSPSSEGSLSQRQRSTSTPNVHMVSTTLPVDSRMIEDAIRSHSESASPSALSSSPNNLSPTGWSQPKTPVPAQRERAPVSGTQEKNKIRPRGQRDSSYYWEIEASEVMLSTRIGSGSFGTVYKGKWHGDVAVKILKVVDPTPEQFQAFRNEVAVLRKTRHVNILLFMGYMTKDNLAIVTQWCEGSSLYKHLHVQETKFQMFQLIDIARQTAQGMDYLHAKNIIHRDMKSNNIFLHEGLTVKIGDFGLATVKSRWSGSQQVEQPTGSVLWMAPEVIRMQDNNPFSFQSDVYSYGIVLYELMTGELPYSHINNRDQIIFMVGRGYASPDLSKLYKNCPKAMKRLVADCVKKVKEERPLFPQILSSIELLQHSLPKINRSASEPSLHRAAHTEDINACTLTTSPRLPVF

# Set 1 — read-out: enzyme activity; mode: inhibitor; tested at: 0.5 µM; relative to: control
# Target: Non-receptor tyrosine-protein kinase TYK2 (TYK2, Homo sapiens, UniProt P29597)
# Chain of UniProt P29597 (whole entry, looked up): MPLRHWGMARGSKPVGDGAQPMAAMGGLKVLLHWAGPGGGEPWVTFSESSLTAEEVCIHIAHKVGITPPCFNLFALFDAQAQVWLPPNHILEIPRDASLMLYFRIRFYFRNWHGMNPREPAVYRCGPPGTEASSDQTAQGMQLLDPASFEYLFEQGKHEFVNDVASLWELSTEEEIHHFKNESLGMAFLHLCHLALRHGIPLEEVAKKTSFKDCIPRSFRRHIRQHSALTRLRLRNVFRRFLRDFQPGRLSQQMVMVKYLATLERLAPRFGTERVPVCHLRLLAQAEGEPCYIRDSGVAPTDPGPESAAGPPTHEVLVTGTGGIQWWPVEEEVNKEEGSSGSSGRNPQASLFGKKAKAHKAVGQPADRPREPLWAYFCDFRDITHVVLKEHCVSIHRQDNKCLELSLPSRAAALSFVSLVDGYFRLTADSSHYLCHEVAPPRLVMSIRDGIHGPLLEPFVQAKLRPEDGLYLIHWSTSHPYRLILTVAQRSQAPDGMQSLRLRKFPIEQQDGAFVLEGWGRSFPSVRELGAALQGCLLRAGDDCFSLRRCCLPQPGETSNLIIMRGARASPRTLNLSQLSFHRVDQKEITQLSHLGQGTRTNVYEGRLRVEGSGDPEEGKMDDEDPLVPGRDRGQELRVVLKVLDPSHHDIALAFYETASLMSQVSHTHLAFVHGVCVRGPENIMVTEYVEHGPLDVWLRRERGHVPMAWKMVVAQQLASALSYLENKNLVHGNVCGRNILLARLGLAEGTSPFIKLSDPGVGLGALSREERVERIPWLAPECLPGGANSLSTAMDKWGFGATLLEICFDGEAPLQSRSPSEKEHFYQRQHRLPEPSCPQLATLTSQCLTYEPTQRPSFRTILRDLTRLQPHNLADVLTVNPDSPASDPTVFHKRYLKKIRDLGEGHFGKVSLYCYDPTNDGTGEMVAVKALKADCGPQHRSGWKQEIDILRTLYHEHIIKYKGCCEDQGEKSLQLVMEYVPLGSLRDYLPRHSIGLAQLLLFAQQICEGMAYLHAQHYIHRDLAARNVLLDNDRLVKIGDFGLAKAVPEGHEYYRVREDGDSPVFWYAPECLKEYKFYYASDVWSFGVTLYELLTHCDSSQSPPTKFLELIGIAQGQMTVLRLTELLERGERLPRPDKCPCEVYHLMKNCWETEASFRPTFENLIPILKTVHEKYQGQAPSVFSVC
Structure (SMILES),remaining activity [%]
NC(=O)c1cccc(-c2cc(Nc3ccc(OC(F)(F)F)cc3)ncn2)c1,82.7
CCN(CC)CCCCN1c2ccccc2Oc2ccc(Cl)cc21,96.7
Nc1nc(Nc2ccc(S(N)(=O)=O)cc2)nn1C(=S)Nc1c(F)cccc1F,5.11
Clc1ccc(Nc2nnc(Cc3ccncc3)c3ccccc23)cc1,89.4
CC(C)N(CCC(=O)c1ccc2ccccc2c1)Cc1ccccc1,103
c1cc(-c2cnn3cc(-c4ccc(OCCN5CCCCC5)cc4)cnc23)ccn1,69.8
C[C@@H](N)[C@H]1CC[C@H](C(=O)Nc2ccncc2)CC1,89.9

# Set 2 — cell line: mouse MPNST tumor cells; technique: high-content nuclear imaging; item: cell number; tested at: 10 µM; time: 12 h; setting: mean of 2 replicates; relative to: plate mean; reading: higher = more cells
SMILES,nuclei count [z-score]
Cc1cccc(C)c1-n1c(=O)c2cnc(Nc3ccc(N4CCN(C)CC4)cc3)nc2n2c3ccccc3nc12,-4.7
CC(C)(C)c1ccc(S(=O)(=O)NCc2ccc(C(=O)Nc3cccnc3)cc2)cc1,0.751
CCCCC#Cc1nc(NC)c2ncn(C3OC(CO)C(O)C3O)c2n1 (stereo not shown),-1.4
NC(CO)C(=O)NNCc1ccc(O)c(O)c1O (stereo not shown),1.56
CN(C)Cc1cccc(N=C(c2ccccc2)c2c(O)[nH]c3cc(C(=O)N(C)C)ccc23)c1,0.26
O=C1c2cccc(O)c2C(=O)c2c(O)cccc21,0.738

# Set 3 — species: human; matrix: microsomes or S9; tested at: 2 µM; time: 0.5 h
Compound,remaining compound
CCC(CN1CCCC1)n1cncc1-c1cnc(N2CCC(C)CC2)nc1 (stereo not shown),74.4%
Cc1ccc2c(-n3ccnc3)c(-c3ccc(Cl)cc3Cl)c([S+](C)[O-])nc2c1 (stereo not shown),66.9%
CCCN1C(=O)c2c(C(=O)NCc3ccc(N(C)C)cc3)ncn2CC1(C)C(=O)NCc1ccc(F)cc1 (stereo not shown),25.5%
COc1cc(=O)[nH]cc1C(=O)N1CCCC1c1ccnn1C (stereo not shown),88.5%
COc1ccc(CCc2n[nH]c(NC(=O)Cn3cc(OC)c(=O)cc3C)n2)cc1,> 100%
CN(C)CCN1C(=O)C2CC=C(Cl)CC2C1=O (stereo not shown),50.9%

# Set 4 — read-out: cell-free assay; technique: competition with immobilised ligand; tested at: 1 µM
# Structure (SMILES): CCCOc1ccc([C@H]2[C@H](C(=O)O)[C@@H](c3ccc4c(c3)OCO4)CN2CC(=O)Nc2c(CC)cccc2CC)cc1
target,remaining binding [%]
"Serine/threonine-protein kinase DCLK1 (DCLK1, Homo sapiens, UniProt O15075)",75
"Tyrosine-protein kinase Lyn (LYN, Homo sapiens, UniProt P07948)",90
"Phosphatidylinositol 4,5-bisphosphate 3-kinase catalytic subunit alpha isoform (PIK3CA, Homo sapiens, UniProt P42336, C420R)",95
"Ephrin type-B receptor 4 (EPHB4, Homo sapiens, UniProt P54760)",100
"Serine/threonine-protein kinase ULK1 (ULK1, Homo sapiens, UniProt O75385)",68
"Ribosomal protein S6 kinase alpha-4, N-terminal kinase domain (RPS6KA4, Homo sapiens, UniProt O75676)",84
"Mitogen-activated protein kinase 9 (MAPK9, Homo sapiens, UniProt P45984)",65
"Serine/threonine-protein kinase Nek7 (NEK7, Homo sapiens, UniProt Q8TDX7)",96
"RAF proto-oncogene serine/threonine-protein kinase (RAF1, Homo sapiens, UniProt P04049)",98
"Ephrin type-B receptor 6 (EPHB6, Homo sapiens, UniProt O15197)",65
"Tyrosine-protein kinase Fyn (FYN, Homo sapiens, UniProt P06241)",100
"Leucine-rich repeat serine/threonine-protein kinase 2 (LRRK2, Homo sapiens, UniProt Q5S007)",79
"Tyrosine-protein kinase ABL1, phosphorylated (ABL1, Homo sapiens, UniProt P00519)",73
"Proto-oncogene tyrosine-protein kinase Src (SRC, Homo sapiens, UniProt P12931)",99
"Tyrosine-protein kinase JAK2, JH1 (JAK2, Homo sapiens, UniProt O60674)",53

# A few entries again (set 4):
target,remaining binding [%]
"Serine/threonine-protein kinase DCLK1 (DCLK1, Homo sapiens, UniProt O15075)",75
"Ephrin type-B receptor 4 (EPHB4, Homo sapiens, UniProt P54760)",100
"Serine/threonine-protein kinase ULK1 (ULK1, Homo sapiens, UniProt O75385)",68
"Leucine-rich repeat serine/threonine-protein kinase 2 (LRRK2, Homo sapiens, UniProt Q5S007)",79
